# Measurements pooled from the literature.
# Compare with care: the assays were run in different laboratories. Numbers after ± are the reported error.
# Sequence of UniProt P53779 (whole entry, looked up): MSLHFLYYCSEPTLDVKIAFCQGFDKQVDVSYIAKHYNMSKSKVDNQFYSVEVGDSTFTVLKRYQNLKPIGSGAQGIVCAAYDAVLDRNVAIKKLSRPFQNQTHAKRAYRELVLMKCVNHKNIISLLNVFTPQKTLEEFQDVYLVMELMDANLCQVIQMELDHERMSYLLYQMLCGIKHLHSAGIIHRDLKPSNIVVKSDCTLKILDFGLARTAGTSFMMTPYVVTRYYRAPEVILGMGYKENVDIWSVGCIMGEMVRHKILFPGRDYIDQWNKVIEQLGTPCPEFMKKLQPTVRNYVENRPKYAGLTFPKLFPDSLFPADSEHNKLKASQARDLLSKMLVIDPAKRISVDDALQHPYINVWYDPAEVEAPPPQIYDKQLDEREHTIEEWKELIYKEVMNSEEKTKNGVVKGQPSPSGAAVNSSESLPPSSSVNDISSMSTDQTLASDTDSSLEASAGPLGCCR
SMILES,tested on,test,test system,conditions,scale,endpoint,value
CN1CCC(N[C@H]2CCc3[nH]c4c(C(N)=O)ccc(-c5ccccc5Cl)c4c3C2)CC1,A-375,cell growth or viability,,,,IC50,2.25 µM
CC[C@H](NC(=O)[C@H](CCCCN)NC(=O)[C@H]1CCC[C@@H]1NC(=O)[C@@H](NC(=O)[C@H](CCCCN)NC(=O)[C@H](CCCCN)NC(=O)C[C@@H](NC(=O)[C@@H](NC(=O)[C@H](CCCCN)NC(=O)[C@H](Cc1ccccc1)NC(=O)[C@H]1CCC[C@@H]1NC(=O)CN)[C@@H](C)CC)[C@@H](C)CC)[C@@H](C)CC)C(=O)N[C@@H](Cc1ccccc1)C(N)=O,NIH 3T3,cytotoxicity,,,,IC50,12.5 µg/mL
Cc1ccnc(-c2cc(C(=O)O)ccn2)c1.F[P-](F)(F)(F)(F)F.F[P-](F)(F)(F)(F)F.[Ru+2].c1ccc(-c2ccccn2)nc1.c1ccc(-c2ccccn2)nc1,MCF-10A,cell viability,,"48 h, light irradiation 2.5 min",,IC50,> 100 µM
CC[C@H](C)[C@H](NC(=O)C[C@H](CCCCN)NC(=O)[C@H](Cc1ccccc1)NC(=O)C[C@H](CC(C)C)NC(=O)CN)C(=O)N[C@H](C(=O)N[C@@H](CCCCN)CC(=O)N[C@@H](CCCCN)C(=O)N[C@H](CC(=O)N[C@@H](C)C(=O)N[C@@H](CCCCN)CC(=O)N[C@@H](CO)C(=O)N[C@@H](Cc1ccccc1)C(N)=O)[C@@H](C)CC)[C@@H](C)CC,NIH 3T3,cytotoxicity,,,,IC50,> 128 µg/mL
CCN(C(=O)c1cc(F)ccc1Oc1nncnc1N1CCC2(C1)CN(C(CCCN(C)CCOC)C(C)C)C2)C(C)C (stereo not shown),MOLM-14,"QuantiGene, refers to: FLT3 mRNA",,,,IC50,> 2.4 µM
CC[C@H](C)[C@H](NC(=O)[C@H](CCCCN)NC(=O)C[C@H](Cc1ccccc1)NC(=O)[C@H](CC(C)C)NC(=O)CN)C(=O)N[C@H](CC(=O)N[C@@H](CCCCN)C(=O)N[C@@H](CCCCN)C(=O)N[C@H](CC(=O)N[C@@H](CC(C)C)C(=O)N[C@@H](CCCCN)C(=O)N[C@@H](CO)CC(=O)N[C@@H](Cc1ccccc1)C(N)=O)[C@@H](C)CC)[C@@H](C)CC,NIH 3T3,cytotoxicity,,,,IC50,17.9 µg/mL
C=CC(=O)N1CCCC(n2c(=O)c3ncccc3n(Cc3ccc(Oc4ccccc4)cc3)c2=O)C1 (stereo not shown),UPN1,"cell growth or viability, MTT",,72 h,,IC50,0.12 µM
Cn1ncc(-c2ccc3c(=O)[nH]nc(CN)c3c2)c1-c1c(F)c(Cl)cc(OC2CC2)c1C#N,SNU-387,"cell viability, inhibitor, CellTiter-Glo",,"120 h, baseline-subtracted",,IC50,1.45 µM
CC[C@H](C)[C@H](NC(=O)[C@H](CCCCN)NC(=O)[C@H](Cc1ccccc1)NC(=O)C[C@H](CC(C)C)NC(=O)CN)C(=O)N[C@H](CC(=O)N[C@@H](CCCCN)C(=O)N[C@@H](CCCCN)C(=O)N[C@H](CC(=O)N[C@@H](CC(C)C)C(=O)N[C@@H](CCCCN)C(=O)N[C@@H](CC(C)C)C(=O)N[C@H](CC(N)=O)Cc1ccccc1)[C@@H](C)CC)[C@@H](C)CC,NIH 3T3,cytotoxicity,,,,IC50,4.5 µg/mL
CN1CC[C@@H](COc2cnc(C#N)cc2-c2ccn3nc(NC(=O)C4CC4)cc3c2)C1,"dendritic cells, mouse, bone marrow-derived","cytokine release, refers to: TNF",,added: LPS,,IC50,0.78 µM
COC(=O)N1c2ccc3c(nc(Cc4ccccc4)n3[C@@H]3CCC[C@@H](C(=O)O)C3)c2CC[C@@H]1C,CAMA-1,"cell growth or viability, ATP luminescence",,10 days,,IC50,0.59 µM
Cc1ncsc1-c1ccc(C(C)NC(=O)C2CC(O)CN2C(=O)C(NC(=O)CCCCCCCCCCN2CCCC(Nc3ncc(Cl)c(Nc4ccccc4S(=O)(=O)C(C)C)n3)C2)C(C)(C)C)cc1 (stereo not shown),22Rv1,"RNA-seq, refers to: ZBTB3 mRNA",,concentration not given,relative to: DMSO,log2 fold change,-1.73
C=CC(=O)Nc1cccc(Cn2ncc3cnc(Nc4cnn(CCOC)c4)nc32)c1,PIP5K1C human,"binding, KINOMEscan",,100 nM,lower = stronger binding,percent of control,54%
CC(=O)NCCOCCOCCOCCNC(=O)c1cc(C(=O)N2CCNCCNCCNCC2)c(O)c(C(=O)N2CCNCCNCCNCC2)c1,WI-38,"cell growth or viability, MTT",,24 h,,IC50,> 1000 µM
COC1CN([C@H]2CC[C@H]([C@@]3(C)Oc4c(Cl)cc(C(=O)NCc5c(SC)cc(C)[nH]c5=O)c(C)c4O3)CC2)C1,,"RNA-seq, refers to: SULT1A2 mouse homolog","mouse, HT-1376 xenograft, whole blood",dose not given,relative to: vehicle,log2 fold change,5.24
C[n+]1ccc(/C=N/NC(=O)C(=O)N/N=C/c2cc[n+](C)cc2)cc1,MYC parallel G4 DNA,FRET melting,,"1 µM, DNA 0.2 µM, added: duplex DNA competitor 10 µM",,ΔTm,4 ± 0.8 °C
NC(=O)c1ccc(-c2ccccc2Cl)c2c3c([nH]c12)CCC(N)C3 (stereo not shown),A-375,cell growth or viability,,96 h,,IC50,0.0318 µM
CC(C)c1ccc(N(C)c2ccc3c(c2)OCC[C@H]3CNc2cnccc2C(=O)O)cc1,SW1417,"cell viability, CellTiter-Glo",,7 days,,IC50,≥ 10 µM
COc1ccc(C(O)=CC(=O)c2ccc(C(C)(C)C)cc2)cc1.[Ru+2].c1ccc(-c2ccnc3c2ccc2c(-c4ccccc4)ccnc23)cc1.c1ccc(-c2ccnc3c2ccc2c(-c4ccccc4)ccnc23)cc1,HL-60,phototoxicity,,"light over 450 nm, 29.1 J/cm2",,IC50,2.63 µM
CCOc1cncc(-c2ccc(NC(=O)C3(c4ccnc(NS(=O)(=O)C5CC5)n4)CCOCC3)nc2)n1,DLD-1,"cell growth or viability, ATP luminescence",,72 h,,IC50,10 µM
O=C(OCc1ccc(O[C@@H]2O[C@H](CO)[C@@H](O)[C@H](O)[C@H]2O)cc1)c1ccc(O)cc1,MDA-MB-231 breast cancer,"cell viability, MTT",DMEM with 10% FBS,48 h,,IC50,> 200 µM
COc1cc(-c2cc(C(C)=O)n3ccccc23)cc(OC)c1Cn1ccnc1,MOLM-13,"cell growth or viability, ATP luminescence",,,,IC50,1.24 µM
CC[C@H](C)[C@H](NC(=O)[C@H](CCCCN)NC(=O)[C@H]1CCC[C@@H]1NC(=O)[C@H](CC(C)C)NC(=O)CN)C(=O)N[C@H](CC(=O)N[C@@H](CCCCN)C(=O)N[C@@H](CCCCN)C(=O)N[C@H]1CCC[C@@H]1C(=O)N[C@@H](CC(C)C)C(=O)N[C@@H](CCCCN)C(=O)N[C@@H](CO)CC(=O)N[C@@H](Cc1ccccc1)C(N)=O)[C@@H](C)CC,NIH 3T3,cytotoxicity,,,,IC50,25.4 µg/mL
Cc1nn(-c2cccc(N)c2)c(=O)c2cnc(Nc3ccc(N4CCNCC4)cc3)nc12,"Mitogen-activated protein kinase 10 (MAPK10, Homo sapiens, UniProt P53779)","enzyme activity, inhibitor",,,,IC50,> 10 µM
CCn1nc(Cl)c2c1-c1cnc(N)c(c1)O[C@H](C)c1cc(F)ccc1-c1nn(C)cc1C2,"Ba/F3 EML4-ALK v3, no mutation",cell viability,,,,IC50,0.0011 µM
COc1cc(-c2cn(C)c(=O)c3cnccc23)cc(OC)c1Cn1ccnc1,EOL1,"cell growth or viability, ATP luminescence",,,,IC50,5.37 µM
CC#CC(=O)N1CCC[C@H]1c1nc(-c2ccc(C(=O)Nc3ccccn3)cc2)c2c(N)nccn12,Ramos,"IP1 production, HTRF",,"4 h, added: anti-IgM",,IC50,0.00724 µM
CNS(=O)(=O)Nc1nccc(Cc2c(C)c3ccc(Oc4ncccc4F)cc3oc2=O)c1F,HCC1500,cell viability,,7 days,,IC50,> 1 µM
Cc1cc(C)cc(COc2cc3c(cc2OCc2cc(C)cc(C)c2)[C@@H]2C[C@](O)(Cc4cn(Cc5ccc(F)cc5)nn4)C[C@H](C)N2CC3)c1 (relative stereo),ASPC1,"cell growth or viability, MTT",,,,IC50,0.437 µM
C[n+]1ccc(/C=N/NC(=O)c2cncc(C(=O)N/N=C/c3cc[n+](C)c4ccccc34)n2)c2ccccc21,MYC parallel G4 DNA,FRET melting,,"1 µM, DNA 0.2 µM",,ΔTm,11.2 ± 0.2 °C
CC#CC#C/C=C1/O[C@@]2(CCCCO2)[C@@H](O)[C@@H]1OC(C)=O,RAW264.7,"NO release, inhibitor, Griess",,LPS-stimulated,,IC50,7.42 µM
NCCOc1cc(NC(=O)c2cc(Cl)cc(C(=O)Nc3cc(OCCN)c4ccccc4n3)n2)nc2ccccc12,WI-38,"cell growth or viability, ATP luminescence",,72 h,,IC50,1.6 µM
COc1cc(-c2cc(C(C)=O)n3ccccc23)c(OC)cc1Cn1ccnc1,EOL1,"cell growth or viability, ATP luminescence",,,,IC50,0.061 µM
CC(C)=CC1OC(C)(C)C2C=C3C(=O)C(Cl)=CC(O)C3C3C(O)C4OC4C(=O)C132 (stereo not shown),PC-9,"cell growth or viability, MTS",,,,IC50,1.27 µM
CC(C)C(=O)Cc1c(OCC(O)C(C)(C)O)ccc2ccc(=O)oc12 (stereo not shown),COLO 205,"cell growth or viability, MTT",,24 h,,IC50,> 100 µM
O=C(NCCOCCOCCNC(=O)c1cc2ccccc2c2ccccc12)c1cc(C(=O)N2CCNCCNCCNCC2)c(O)c(C(=O)N2CCNCCNCCNCC2)c1,WI-38,"cell growth or viability, MTT",,24 h,,IC50,> 1000 µM
CC[C@H](C)[C@H](NC(=O)[C@H](CCCCN)NC(=O)[C@H](Cc1ccccc1)NC(=O)[C@H]1CCC[C@@H]1NC(=O)CN)C(=O)N[C@H](CC(=O)N[C@@H](CCCCN)C(=O)N[C@@H](CCCCN)C(=O)N[C@H](CC(=O)N[C@@H](CC(C)C)C(=O)N[C@@H](CCCCN)C(=O)N[C@@H](CC(C)C)C(=O)N[C@H](CC(N)=O)Cc1ccccc1)[C@@H](C)CC)[C@@H](C)CC,NIH 3T3,cytotoxicity,,,,IC50,4.1 µg/mL
CC(C)(O)C1CC[C@]2(C)C(CC=C3[C@@H]4C[C@](C)(CO)CC[C@]4(C(=O)O)CC[C@]32C)[C@@]1(C)CCC(=O)O (stereo partly shown),RAW264.7,"NO release, inhibitor, Griess",,LPS-stimulated,,IC50,> 100 µM
CC#CC#C/C=C1/O[C@@]2(CCCCO2)[C@@H](O)[C@@H]1O,RAW264.7,"NO release, inhibitor, Griess",,LPS-stimulated,,IC50,> 50 µM
O=C(c1cc(Cc2n[nH]c(=O)c3ccccc23)ccc1F)N1CCN(C(=O)C2CC2)CC1,DLD-1,cell growth or viability,,,,IC50,> 100 µM

# For quick reference, copied from above:
SMILES,tested on,test,test system,conditions,scale,endpoint,value
CC[C@H](C)[C@H](NC(=O)[C@H](CCCCN)NC(=O)[C@H](Cc1ccccc1)NC(=O)[C@H]1CCC[C@@H]1NC(=O)CN)C(=O)N[C@H](CC(=O)N[C@@H](CCCCN)C(=O)N[C@@H](CCCCN)C(=O)N[C@H](CC(=O)N[C@@H](CC(C)C)C(=O)N[C@@H](CCCCN)C(=O)N[C@@H](CC(C)C)C(=O)N[C@H](CC(N)=O)Cc1ccccc1)[C@@H](C)CC)[C@@H](C)CC,NIH 3T3,cytotoxicity,,,,IC50,4.1 µg/mL
CC(C)(O)C1CC[C@]2(C)C(CC=C3[C@@H]4C[C@](C)(CO)CC[C@]4(C(=O)O)CC[C@]32C)[C@@]1(C)CCC(=O)O (stereo partly shown),RAW264.7,"NO release, inhibitor, Griess",,LPS-stimulated,,IC50,> 100 µM
CC#CC#C/C=C1/O[C@@]2(CCCCO2)[C@@H](O)[C@@H]1O,RAW264.7,"NO release, inhibitor, Griess",,LPS-stimulated,,IC50,> 50 µM
